# Assay results collected from several papers.
# Parts stem from different laboratories: compare values within a part only.

# Set 1 — method: protein-binding microarray; molecule type: double-stranded DNA, one strand shown; matrix: in vitro; concentration: 250 nM; notes: 60-bp whole probe; added: salmon DNA 0.4 mg/ml; relative to: random background probes; reading: higher = stronger binding; constant ends, left off below: GCCTAGCAC … GTCTTGATTCGCTTGACGCTGCTG
# Target: Interferon regulatory factor 5, full length, phosphomimetic (IRF5, Homo sapiens, UniProt Q13568-2, residues 1-514, K96S/S451D/S453D/S456D/S462D)
Sequence,log fluorescence
TTAGTTATCAGTTTCGATTAGTGCTAG,10.3 z-score
TAAGGACTGGGGTTTCGGTTAGTGCTA,7.04 z-score
TTAGGTTTCGGCCTCGGTTAGTGCTAG,7.4 z-score
TCATTTCTATCTCTGTTACTGTGCTAG,2.37 z-score
TTAGGTGCCCTTTTCCTTTAGTGCTAG,-0.0658 z-score
GGCGCTTTTTTTCCGAGTGAGTGCTAG,0.286 z-score
TCAGTTTCTCCTTTGTAACTGTGCTAG,3.8 z-score
CTGTTTTTGCTTTCCTTTATGTGCTAG,2.21 z-score
TTAGTTATCGGGTTTCGATTAGTGCTA,8.12 z-score
GACAGTCTCCTTCTCCTGACGTGCTAG,0.00407 z-score
GACGAACTGGGGTATTGAGACGTGCTA,-0.292 z-score
GACGGTATCGGGTTTCGGGCCGTGCTA,3.82 z-score
GACGGTTTTGGTTCCGGGACGTGCTAG,1.69 z-score
TTAGATTTCAGACTGGATTAGTGCTAG,0.345 z-score
GACGGCATCCTTTTCCTGACGTGCTAG,-0.148 z-score
TTAAGTTTCGACTATCGGTTAGTGCTA,10.4 z-score

# Set 2 — method: competition protein-binding microarray; molecule type: double-stranded DNA, one strand shown; matrix: in vitro; concentration: 2 µM; added: Pho4 competitor, 0.05 µM; reading: higher = stronger binding; constant ends, left off below: … GTCTTGATTCGCTTGACGCTGCTG
# Target: Centromere-binding protein 1, full length, His-tagged (CBF1, Saccharomyces cerevisiae, UniProt P17106, residues 1-351)
# Chain of UniProt P17106 (whole entry, looked up): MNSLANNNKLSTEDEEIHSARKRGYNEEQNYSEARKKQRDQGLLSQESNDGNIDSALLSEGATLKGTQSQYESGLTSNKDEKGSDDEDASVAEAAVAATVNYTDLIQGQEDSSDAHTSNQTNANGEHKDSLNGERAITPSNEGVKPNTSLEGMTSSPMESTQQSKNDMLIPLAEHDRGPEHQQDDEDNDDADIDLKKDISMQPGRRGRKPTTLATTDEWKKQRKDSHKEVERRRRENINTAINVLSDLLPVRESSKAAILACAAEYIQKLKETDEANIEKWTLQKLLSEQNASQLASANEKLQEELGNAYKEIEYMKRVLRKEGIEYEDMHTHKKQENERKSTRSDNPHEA
# Notes: whole 60-bp probe, lowest competitor level
Sequence,fluorescence intensity
CTCCTCCGCGCTTTCCTCGTGCGCCTGCAGCCCTTG,82.6 a.u.
AAATTACTAAGTTGAGTAGTGGGTGACGCCGTATGA,75.6 a.u.
AAAGCGGTAATTTGTCACGTCACTTCACATATCTAT,123 a.u.
TCATATGTAGATAATAAACCTGCTATAAAACTGTCT,96.5 a.u.
CTAACGAAGGTTTGTCACGTCACTTACAAGCCAAGT,106 a.u.
TATATGTAGTATCCACACGTGGACGACCATTAACGA,599 a.u.
CGTCCTAGTGATTGGACGGTGGGTGCCATGAGGAAG,76.4 a.u.
ACTAGAAGAAATCCGCACGTGTAACCAAAAATAGAG,1580 a.u.
AAATTACTAAGTTGTTCCGTGGGTGACGCCGTATGA,79.4 a.u.
TAGTGGATTCTCGGAGGCGTGACTCGAGCCAGCCCA,201 a.u.
AAATTACTAAGTTGCAAGGTGGGTGACGCCGTATGA,55.7 a.u.
GTCTTGTCTCATTGGGGCGTGGGTGTCCCCACTTCA,85.1 a.u.
GTCTCCATCTTCTTCCACGGGGGCTAGAACACCATC,90.6 a.u.
GCCTCCGGTCCAGGCACCGTGGCCGCAGGTTTGATT,55.2 a.u.
AAAGCGGTAATTTTTCACGTGACTTCACATATCTAT,9500 a.u.
CTAACGAAGGTTTGTCACACCACTTACAAGCCAAGT,112 a.u.
CAAACGGTTTGGCCGCTCGTGTCGGCATTGGTCAAA,57.3 a.u.
AAATAAAGCCTAAAGCGCGTGGTGAGTACGAAAAAA,91.9 a.u.
TGGAAGGAAAAAACCTTCGTGGGTAGAGGGCTCATA,58 a.u.
TCGCAGATGCCATATCCCGTGCCGAATATACTATAA,276 a.u.
CGGTATGTTCCGAGCCGCGTGCCGAAGGAGGGCAAA,66.8 a.u.

# Set 3 — method: protein binding microarray; molecule type: double-stranded DNA, one strand shown; matrix: in vitro; concentration: not given; relative to: not given; reading: higher = stronger binding
# Target: Histone acetyltransferase KAT6A, both winged helices, GST fusion (KAT6A, Homo sapiens, UniProt Q92794, residues 1-181)
# Notes: 8-mer, flanks averaged, mean of 2 arrays, mostly near background
# Target sequence (chain): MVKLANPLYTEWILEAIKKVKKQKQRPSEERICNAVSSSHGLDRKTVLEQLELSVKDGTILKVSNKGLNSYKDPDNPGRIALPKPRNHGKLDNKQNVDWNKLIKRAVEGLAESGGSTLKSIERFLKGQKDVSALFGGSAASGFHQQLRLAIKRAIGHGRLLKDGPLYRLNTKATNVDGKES
Sequence,E-score
GTGGGAGA,-0.223
ACCGTGTA,0.0884
GGTAGACA,-0.0586
ACTGGTCA,-0.0712
ACAAACAA,-0.129
ATCCGGCG,0.28
ACGTATTC,0.0764
CCGCAGGA,0.00534
GTATCCGA,0.152
AAATCAAT,-0.025
CGCGCGCA,0.399
GATTGGAC,-0.153
ATCCGGTG,0.158
AAGTCTGA,-0.214
ACTAGAAC,-0.0331
AGTCCGGA,0.0549

# Set 4 — method: RNA Bind-n-Seq; molecule type: RNA; matrix: in vitro; concentration: 200 nM; notes: whole 134-nt RNA, ends assumed; added: 150 mM KCl; relative to: input library; reading: higher = stronger binding
# Target: Ras GTPase-activating protein-binding protein 1, full length (G3BP1, Homo sapiens, UniProt Q13283)
# Chain of UniProt Q13283 (whole entry, looked up): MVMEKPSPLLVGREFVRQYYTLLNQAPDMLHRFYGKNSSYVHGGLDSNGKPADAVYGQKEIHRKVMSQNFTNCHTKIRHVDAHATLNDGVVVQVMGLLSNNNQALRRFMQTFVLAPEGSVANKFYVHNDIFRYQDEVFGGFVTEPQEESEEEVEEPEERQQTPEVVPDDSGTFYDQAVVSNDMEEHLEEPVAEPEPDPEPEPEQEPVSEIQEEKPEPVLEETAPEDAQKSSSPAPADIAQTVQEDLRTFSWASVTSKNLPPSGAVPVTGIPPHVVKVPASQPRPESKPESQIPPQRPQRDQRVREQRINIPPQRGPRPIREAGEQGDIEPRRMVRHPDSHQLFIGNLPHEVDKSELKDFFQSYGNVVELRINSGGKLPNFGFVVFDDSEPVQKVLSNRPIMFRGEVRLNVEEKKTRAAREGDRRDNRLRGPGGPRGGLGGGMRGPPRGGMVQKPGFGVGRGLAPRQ
# Constant ends, left off below: GGGAGUUCUACAGUCCGACGAUC … UGGAAUUCUCGGGUGUCAAGG
Sequence,log2 enrichment
UAACUUUAGAGGAGGAUCUGAUGGAUAUGGCAGUGGACGUGGAUUUGGGGAUGGCUAUAAUGGGUAUGGUGGAGGACCUGGAGGUGGCAA,0.281
GUCCUGUGCUACACAUCGUAUGUACCGAAUCGGGUUUUUGGGUUUUUUUGGGAAAGGGAAAGUAUUAUGUUACGCCGUUCGGAUCUGCAC,-0.473
CACAGACAACACGCACCCACACAGACACAGAGGGAAGGGGUUGGGAUGGGGACAGGGUGCACAGCAGGGGGGGGUAGGACCCCAGCCCCU,1.72
UCCUCAAGUCCUGUGCUACACAUCGUAUGUACCGAAUCGGUGGAGGUUUGGAAAGUAUUAUGUUACGCCGUUCGGAUCUGCACUUCCAGC,-0.857
CCUGUGCUACACAUCGUAUGUACCGAAUCGGAAAAAAAGGAAAAAAAGGGAAAAAAAGGGAAAGUAUUAUGUUACGCCGUUCGGAUCUGC,-1.04
UUCCCUGAAGAUGAGAUCCCAGAGAAGGCCUGCAGGCGCCUGCUUGAAGGGAGGCGGCAGAAGAAGACGAAGAAGCAGAAGCGUCUGCUC,0.561
UCCUGUGCUACACAUCGUAUGUACCGAAUCGGGGAAAGGGGAAAAAAAGGGGAAAGGGGAAAGUAUUAUGUUACGCCGUUCGGAUCUGCA,0.811
UUCAACAACUAGUACUGCUUCAAAUUAUCCAGAUGUGUUAACAAGGCCUUCUCUUCAUCGGAGCCAUCUGAAUUUUUCCAUGUUGGAAUC,-0.0161
CUCAAGUCCUGUGCUACACAUCGUAUGUACCGAAUCGGUGGAGGUUUUUUUGGAAAGUAUUAUGUUACGCCGUUCGGAUCUGCACUUCCA,-0.476
CUCAAGUCCUGUGCUACACAUCGUAUGUACCGAAUCGGGGUGGGGUGGGUGGGGAAAGUAUUAUGUUACGCCGUUCGGAUCUGCACUUCC,0.902
UGGGAGGCGGAUUUUGUUUAUUUUUUUAGCUCAUUUCCAGGGGUGGGAAUUUUUUUUUAAUAUGUGUCAUGAAUAAAGUUGUUUUUGAAA,-0.098
UGGGAGGUGGAUUCUGUUUAUUUUUUUAGCUCAUUUCCAGGGGUGGGAAUUUUUUUUUAAUAUGUGUCAUGAAUAAAGUUGUUUUUGAAA,0.0741
UGGCCCUGGUGGCAUGCGGGGAGGAAGAGGUGGCCUCGUGGAUCGUGGUGGUCCCGGUGGAAUGUUCAGAGGUGGCCGUGGUGGAGACAG,0.308
UCAAGUCCUGUGCUACACAUCGUAUGUACCGAAUCGGUUUGGUUUUUUUGGUGGAAAGUAUUAUGUUACGCCGUUCGGAUCUGCACUUCC,-0.71

# Set 5 — method: RNA Bind-n-Seq; molecule type: RNA; matrix: in vitro; concentration: 365 nM; relative to: no-protein control; reading: higher = stronger binding
# Target: RNA binding protein fox-1 homolog 2, RRM domain, GST-SBP tag (RBFOX2, Homo sapiens, UniProt O43251-10, residues 100-194)
# Notes: natural RNA segment, single round, ends assumed
# Constant ends, left off below: GGGAGUUCUACAGUCCGACGAUC … UGGAAUUCUCGGGUGCCAA
# Target sequence (chain): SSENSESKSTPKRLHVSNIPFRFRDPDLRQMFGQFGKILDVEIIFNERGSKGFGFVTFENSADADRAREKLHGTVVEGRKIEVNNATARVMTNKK
Sequence,RBNS enrichment (R)
CCUUGAGCCUGUAGGGUUUUCAUAGUGGACAAAGGACUUAAAUGGUCUUUUAAAACUGGGAUAGUUUUUGGGGAAAGGGCAAAAGAUUAUCAUAUUGAACAUGUAGUAUC,1.38
UUUUAGGAACUGACAUGAUAAGGUGGUUCUUUCAUAACUCUAAUGCCAUCCAACAUAGCCCUGGGAGAGGCAUGUUAGGUUUCAGAGAUUUUCUCCAUGGAGCAAGGUGC,0.943
CACCCUUGCUAGGGUUUCCGUACAGCCACGUGGCCGGGGCCAUGGCUUUCAAGUGCUGUCUGGGGGGGCCAGCCCCACGAGCCUCCAACCACAUUAGAGGCUGGGAACAG,0.338
CGCACAGAGGUUUUGCUUUAUGCUGUAGAAUACCGACUUUCAUGAUGACAACUUGGUUUAUGCAUGAAUAUUGCAGUAUUUCCAUAUAGCAAAAUAACAUUUCUACCCAG,0.774
CUCAUGAUAUAAUUUGCUAUAACAAUAUUGUAUUAUGCCUUGAAGUUUUAAGCAUUUAAUAUAAAACAUUAUAACAUUAGUUUGUACUUUUUGCUAAUAGUUUGAGCACA,0.402
CCUUGGUGGAGUCCAAAUGAUUUUUCUGUACCAUAUUGUUCUCUUACACAUACGUAUGUUAGGAAAAUAGGCACACUUUCAAAGAGAAUGUUCUCUUACACAUACGUAUG,0.275
CUGUUCUGGCUUUUUAUCUUCUUAGCUCAUCUUAAAUAAGCAGUACACUUGGAUGCAGUGCGUCUGAAGUGCUAAUCAGUUGUAACAAUAGCACAAAUCGAACUUAGGAU,0.329
UGUGUCCGUGUGCAUGGCCUGUUUGUGUGCAAGGGCCCAGGACAGAAGUAUGUGUGCGUGUGUGUGUGCGUAUGCGUGUGAGACAGGGCCGCCGUGGGUGUGCGUGUGUG,2.23
UGACAGCUAGCUGUCACUGGUGCUACCCCAAAGCUUUCCAAUCUUUUAUGUAUUUUUUGUGAAUGAAACUGUUGCUGUAGGAAAGUCAAGGUUCAUGUAAGAGUAUCGUG,3.82
UGCGGCCGGGCUGCCUAUUGCUGCCAGGAUACCUGCCCCAGCGCGGCUCGGCCGCCACCCAGGACGCUUCCAGACCACCUGCCAGCCAUCUCGUGGAGAACAUAGAUGGC,0.181
UUCCAAAUACAUCCUGUUGGAUACUGAAUAGAUCAUAGAUAUUGUAGACUGAGAUCUGGGACUGUGUUGGGACCAUUCAGGUGAUAUGUCACUUCCACAAAUGGCAUCUC,0.4
AUUUUUAUAAUUAUGAUGUAACUCUAUCUUAUCCUUAAAACAUUUAAAAUAAACCCUUUAUGUGCAACUCCUGACUGUAAAGUUUGUGCUGAUGAGCAACAUGUGAUGUG,0.567
